Measured values collected from several papers.
Every numbered part comes from another study and shows a few of its results, in no order.

Series 1 — method: universal PBM; molecule type: double-stranded DNA, one strand shown; sample: in vitro; concentration: 600 nM; direction: higher = stronger binding; measurement: E-score
Target: Sal-like protein 4, full length isoform A (SALL4, Homo sapiens, UniProt Q9UJQ4, residues 1-1053)
UniProt Q9UJQ4, sequence (whole entry, looked up): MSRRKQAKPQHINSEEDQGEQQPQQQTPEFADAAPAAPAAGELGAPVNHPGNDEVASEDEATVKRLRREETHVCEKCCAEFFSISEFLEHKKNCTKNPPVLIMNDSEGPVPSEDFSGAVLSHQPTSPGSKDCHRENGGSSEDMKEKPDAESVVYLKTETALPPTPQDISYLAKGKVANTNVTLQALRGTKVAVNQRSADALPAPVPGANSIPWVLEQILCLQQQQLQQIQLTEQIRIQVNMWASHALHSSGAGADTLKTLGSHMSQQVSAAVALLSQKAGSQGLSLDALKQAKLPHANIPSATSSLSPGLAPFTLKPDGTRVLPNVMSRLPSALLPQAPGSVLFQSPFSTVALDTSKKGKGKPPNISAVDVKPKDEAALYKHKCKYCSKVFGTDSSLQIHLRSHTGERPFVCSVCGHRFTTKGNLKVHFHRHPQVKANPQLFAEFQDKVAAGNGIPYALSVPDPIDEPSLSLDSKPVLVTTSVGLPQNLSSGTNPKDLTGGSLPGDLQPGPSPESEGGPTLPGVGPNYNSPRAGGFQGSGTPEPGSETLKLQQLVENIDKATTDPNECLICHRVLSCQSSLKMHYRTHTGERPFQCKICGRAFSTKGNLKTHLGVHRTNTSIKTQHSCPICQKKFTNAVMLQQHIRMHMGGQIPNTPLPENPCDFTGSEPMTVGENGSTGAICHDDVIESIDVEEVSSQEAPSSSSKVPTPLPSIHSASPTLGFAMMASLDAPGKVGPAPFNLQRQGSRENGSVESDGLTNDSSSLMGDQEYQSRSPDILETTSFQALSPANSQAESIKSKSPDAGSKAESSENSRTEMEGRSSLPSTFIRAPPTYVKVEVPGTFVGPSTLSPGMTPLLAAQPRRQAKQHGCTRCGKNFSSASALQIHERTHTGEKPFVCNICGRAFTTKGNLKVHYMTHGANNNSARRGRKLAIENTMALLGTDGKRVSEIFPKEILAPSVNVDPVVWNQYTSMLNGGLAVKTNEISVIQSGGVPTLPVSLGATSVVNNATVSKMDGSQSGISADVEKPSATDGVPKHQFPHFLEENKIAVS
Setting: 8-mer, flanks averaged, mean of replicates
Strand = ACCTAACT; result = 0.0504
Strand = AGTGAATC; result = 0.0851
Strand = AACTGCAT; result = 0.165
Strand = CATGGGTA; result = -0.117
Strand = AGGACCAC; result = -0.232

Series 2 — method: protein-binding microarray; molecule type: double-stranded DNA, one strand shown; sample: in vitro; concentration: 250 nM; setting: 60-bp whole probe; added: salmon DNA 0.4 mg/ml; reference: random background probes; direction: higher = stronger binding; measurement: log fluorescence; constant ends, left off below: GCCTAGCAC … GTCTTGATTCGCTTGACGCTGCTG
Target: Interferon regulatory factor 5, full length, phosphomimetic (IRF5, Homo sapiens, UniProt Q13568-2, residues 1-514, K96S/S451D/S453D/S456D/S462D)
Strand = TGTACTTTCTATCTCTGTTTGTGCTAG; result = 5.57 z-score
Strand = GACGGAATGGGGTTTCGGGACGTGCTA; result = 1.56 z-score
Strand = TCAACAGTTTTATTTTAGACTGTGCTA; result = 0.996 z-score
Strand = GACGGTTTCGACACTGAGGACGTGCTA; result = 4.9 z-score
Strand = GACGGTCTCGACACTGGGGACGTGCTA; result = -0.25 z-score
Strand = AAGTTTTTATTTTCTGAATGGTGCTAG; result = 1.95 z-score

Series 3 — method: aptamer microarray, sandwich; molecule type: DNA with 2'F-ANA; sample: in vitro; concentration: 200 nM; added: Cy3 exosite-II aptamer, 400 nM; direction: higher = stronger binding; measurement: mean fluorescence intensity; strand: GGTTGGTGTGGTTGG
Target: Prothrombin, mature alpha-thrombin (F2, Homo sapiens, UniProt P00734)
Setting: whole 15-mer aptamer, many near background
Modification = 2'F-ANA at 3 4 7 8 9 10 11 13 14 15; result = 190 a.u.
Modification = 2'F-ANA at 1 2 3 4 5 6 7 11 12 14; result = 51.9 a.u.
Modification = 2'F-ANA at 2 4 7 9 11 15; result = 242 a.u.
Modification = 2'F-ANA at 5 7 8 10 11 15; result = 47.5 a.u.
Modification = 2'F-ANA at 3 4 10 11 12 14; result = 231 a.u.
Modification = 2'F-ANA at 2 9 12 14; result = 182 a.u.

Further values, each from its own experiment
Molecule = PhoQ, residues 284 288 289 292 302 303 SVTLVV; target = PhoP, residues 12 14 15 18 19 STWGI (Escherichia coli, UniProt P23836); test = Sort-seq, measured: YFP reporter; system = E. coli; setting = PhoQ-PhoP variant library, added: 10 µM Mg2+; how to read = reference: high Mg2+ state, higher = stronger signaling; measurement = fold induction; result = 4.65

For quick reference, copied from above (series 3):
Modification = 2'F-ANA at 3 4 10 11 12 14; result = 231 a.u.
Modification = 2'F-ANA at 3 4 7 8 9 10 11 13 14 15; result = 190 a.u.
Modification = 2'F-ANA at 2 4 7 9 11 15; result = 242 a.u.
